# Experimental data gathered from unrelated publications.
# Parts stem from different laboratories: compare values within a part only. Changes are numbered by the printed parent chain.

# Series 1 — method: RNA Bind-n-Seq; form: RNA; matrix: in vitro; concentration: 200 nM; setting: whole 134-nt RNA, ends assumed; with: 150 mM LiCl; relative to: input library; reading: higher = stronger binding; all molecules: 7-deaza-guanosine replaces G
# Target: Fragile X messenger ribonucleoprotein 1, C-terminal low-complexity region (Fmr1, Mus musculus, UniProt P35922)
Oligonucleotide,log2 enrichment
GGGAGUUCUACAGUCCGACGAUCGGUGAUGGUCAACAAGCCUCAACUGCCUCUGCUACAACUGCCAAGUUCCCCGCGUCCCACCCUCCUCUAGGUGCUCCAAGGGACCACCGGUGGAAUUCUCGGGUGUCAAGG,1.02
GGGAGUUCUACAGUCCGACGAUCCCUGUGCUACACAUCGUAUGUACCGAAUCGGGGAAAAAAGGGGAAAAAAGGGAAAAAAGGGAAAGUAUUAUGUUACGCCGUUCGGAUCUGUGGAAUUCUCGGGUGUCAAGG,0.642
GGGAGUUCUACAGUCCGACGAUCGUCCUGUGCUACACAUCGUAUGUACCGAAUCGGCCCCCCGGCCCCCCGGCCCCCCGGGGAAAGUAUUAUGUUACGCCGUUCGGAUCUGCAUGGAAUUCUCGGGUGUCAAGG,1.09
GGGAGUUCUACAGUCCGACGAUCGCAGGAAGUAAAAACAAAUGGAAAUGCUUCGGAUAGUGGCAGGGGUGGGGGUUGCUAAGGAAAGGGUGGGAUGGGAGUGGGUCAAGAGUUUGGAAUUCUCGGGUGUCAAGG,1.48
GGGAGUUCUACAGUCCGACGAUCCCUGUGCUACACAUCGUAUGUACCGAAUCGGGGAAAAAGGGGUUUUUUUGGGGAAAGGGGAAAGUAUUAUGUUACGCCGUUCGGAUCUGCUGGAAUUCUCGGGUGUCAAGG,-1.54
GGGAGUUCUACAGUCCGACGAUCACCAUGCAGGUGGGCAUCUUUGGGAAGUGGGGCAUGGGGGGGAUAGGGAGGGGGGUAACACUUUGGGAACAGGUGGUCCCAGGUCGUUUCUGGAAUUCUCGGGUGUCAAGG,0.926
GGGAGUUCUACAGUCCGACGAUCCAAGUCCUGUGCUACACAUCGUAUGUACCGAAUCGGGAGGGAAAAAAAGGGUGGGAAAGUAUUAUGUUACGCCGUUCGGAUCUGCACUUCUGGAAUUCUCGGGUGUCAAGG,-0.871

# Series 2 — method: protein binding microarray; form: double-stranded DNA, one strand shown; matrix: in vitro; concentration: not given; relative to: not given; reading: higher = stronger binding
# Target: Histone acetyltransferase KAT6A, winged helix 2, GST fusion (KAT6A, Homo sapiens, UniProt Q92794, residues 85-181)
# Setting: 8-mer, flanks averaged, mean of 2 arrays, mostly near background
# Residues (chain): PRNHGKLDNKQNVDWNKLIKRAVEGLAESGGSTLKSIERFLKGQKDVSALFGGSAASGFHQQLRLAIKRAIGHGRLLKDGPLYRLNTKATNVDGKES
Oligonucleotide,E-score
CAGCCGGG,0.135
AAGATCAG,0.123
CCAATGAC,-0.14
GGACGCCA,0.00139
CAAGTCCG,-0.0676
ATTAAGGC,-0.0174
GACATATA,-0.0761
CCATCGTC,0.0307
AGGATGGA,-0.0569
CACTCCCC,0.0104
ACAAAGCT,0.0119
ATCCTTCA,-0.133
GACTGCAA,-0.217
AAGTTGAC,0.00404
GATCATGA,-0.152
ATCTAGGA,-0.105
CACGGGCG,-0.0366

# Series 3 — method: RNA Bind-n-Seq; form: RNA; matrix: in vitro; concentration: not given; relative to: input RNA pool; reading: higher = stronger binding
# Target: RING finger protein unkempt homolog, zinc fingers 1-6, GST-SBP tag (UNK, Homo sapiens, UniProt Q9C0B0, residues 30-357)
# UniProt Q9C0B0, sequence (30-357, looked up): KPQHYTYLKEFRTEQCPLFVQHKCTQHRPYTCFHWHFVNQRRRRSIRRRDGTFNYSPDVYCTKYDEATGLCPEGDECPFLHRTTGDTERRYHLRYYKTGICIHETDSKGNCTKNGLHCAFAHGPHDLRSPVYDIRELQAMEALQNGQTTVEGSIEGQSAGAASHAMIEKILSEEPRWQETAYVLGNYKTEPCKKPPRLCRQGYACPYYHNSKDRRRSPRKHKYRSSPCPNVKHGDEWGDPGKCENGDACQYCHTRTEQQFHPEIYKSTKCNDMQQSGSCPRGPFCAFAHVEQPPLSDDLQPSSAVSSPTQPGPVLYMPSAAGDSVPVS
# Setting: RNA with constant flanks, human and mouse sites, ends assumed
Oligonucleotide,bound/input enrichment [ratio]
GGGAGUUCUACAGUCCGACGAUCAAUAUAAAAGAAUCUCCGAAGAGGCCAGAAACUAGAUCCUUUACUCCUGAAGAAUUCUUUAGUAUUUUCAAUAGAUCCAUUGAUGCCUUUAAGGACUUUAUGGUGGCAUCUGACACUAGUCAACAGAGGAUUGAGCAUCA,74.4
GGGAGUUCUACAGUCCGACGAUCUGUUACCUCAUUUAUACAGAUGAAACCCAGCCUGAGAUGGAUCUUUUCCUUAAGGACUAUUCACCUAAACUUAAGAGAAUGUGCGAGACAAUGGGAUAUUUUUUCCAUGCUGUUUAUUUUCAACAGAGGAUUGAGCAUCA,0.206
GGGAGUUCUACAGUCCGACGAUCAGCUGCCCCUGCCCACCUGCCCUGGUGUGGGGGUCCCUAGGCCACACCCUGCUCCCCACCCAGCUACCCUGUGCGCCUGUGCCCUGCUGGGGGCCUGGGCUCUCCGAGGGGCCUGAGGAUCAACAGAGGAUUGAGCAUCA,0.121
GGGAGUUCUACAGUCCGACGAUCGCUGUCCGGAAGGUCCUACAUAAGGACAAGUCACAAGAGAAUGCAGGCAUGUUCAAGAAUGGAGGCCUCCUUUUCCGAAUAGCCCUACUUACCAUUGGAGGCACCAGCAUGCUUUAUAUACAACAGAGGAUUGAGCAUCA,0.361
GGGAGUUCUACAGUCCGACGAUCUAUUGUGAUAUGACAAGAGACUUAACUUAUCUUGCUCUGUCUUCCACUGUACACGCUGUAUAUAGGGGUCAAUGUGAUGCUGCUGGAGACGAGAAUAAACUGGACUAGAAUAGUGCAUUGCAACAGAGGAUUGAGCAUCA,0.61
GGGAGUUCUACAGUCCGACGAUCCCUGAGCUGAUGGUGGCUUCUUACAACAACAAUGAAGAUGCUCCCCAUGAACCAGAUGGAGUGGCCUUGGUUUGGAACAUGAAGUUUAAGAAAACCACACCAGAAUACGUCUUCCACUGUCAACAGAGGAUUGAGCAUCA,0.145
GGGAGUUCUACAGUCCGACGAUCUCAGGUGUUUGUAGUUAUUCAUACUGUAAAAAGAGGUAGCAUGAUAUGCUGGGACGCAUAUUUAGACCAGGAGCCCAAGGUGGACUCCUCGUCUUGAAUUUGCCAUUAACGUGCUGCAUGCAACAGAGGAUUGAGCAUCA,0.174
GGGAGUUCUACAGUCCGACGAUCUUCUACAGUAUUCCUGAAUUUGACGAAUGGAAAAAACAUAUAGAAAACCAGAAAGCCUGGAAAAUAAAGUACUAUAAAGGAUUGGGUACUAGUACAGCUAAAGAAGCAAAGGAAUAUUUUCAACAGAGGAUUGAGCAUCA,1.26

# Series 4 — target: CCNE1, cyclin fold, Cln2 fusion (human); method: yeast growth competition, sequencing; matrix: yeast; setting: weak parent motif; relative to: not given; reading: higher = stronger binding
# Parent: PKN2 docking peptide (human); VSAVQKLDFSDTM
Variant,normalised enrichment score
VSAVQKLDFSMTM [D11M],0.273
VSAVQKLDFSYTM [D11Y],0.15
VSAVQLLDFSDTM [K6L],0.494
VSAVQKLDFSDTR [M13R],0.814
VDAVQKLDFSDTM [S2D],-0.222
VSACQKLDFSDTM [V4C],0.0825
VSAVQKLDFMDTM [S10M],0.624
VSAVQKLDFSDTF [M13F],0.741
KSAVQKLDFSDTM [V1K],0.421
VSAVQKLIFSDTM [D8I],0.86
VSAVQCLDFSDTM [K6C],0.683
VSAVQKLDFSDLM [T12L],1.18
VSAVQKMDFSDTM [L7M],-0.211
VSAVQKLDFSQTM [D11Q],-0.103

# Series 5 — method: protein-binding microarray; form: double-stranded DNA, one strand shown; matrix: in vitro; concentration: 2540 nM top; setting: 60-bp whole probe; with: salmon DNA 0.4 mg/ml; relative to: random background probes; reading: higher = stronger binding; constant ends, left off below: GCCTAGCAC … GTCTTGATTCGCTTGACGCTGCTG
# Target: Interferon regulatory factor 3, full length, phosphomimetic (IRF3, Homo sapiens, UniProt Q14653, residues 1-427, S386D/S396D/S398D/S402D/T404D/S405D)
# Residues (chain): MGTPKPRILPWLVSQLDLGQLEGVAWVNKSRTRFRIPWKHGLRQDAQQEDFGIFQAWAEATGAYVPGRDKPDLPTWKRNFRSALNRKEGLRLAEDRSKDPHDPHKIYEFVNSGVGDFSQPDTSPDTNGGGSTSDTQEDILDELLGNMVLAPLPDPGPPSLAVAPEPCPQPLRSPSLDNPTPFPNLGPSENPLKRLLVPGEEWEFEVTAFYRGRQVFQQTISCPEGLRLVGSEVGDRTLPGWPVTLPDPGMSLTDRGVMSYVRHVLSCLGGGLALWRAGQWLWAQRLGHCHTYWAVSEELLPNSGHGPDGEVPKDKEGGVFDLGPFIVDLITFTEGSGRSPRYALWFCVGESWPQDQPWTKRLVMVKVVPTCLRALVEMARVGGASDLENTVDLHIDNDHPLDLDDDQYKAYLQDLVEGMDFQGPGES
Oligonucleotide,fitted relative affinity [z-score]
GACGGTTCCGGTGTCGGGACGTGCTAG,1.91
TTAGGTTTCGGGTATCCGTTAGTGCTA,4.54
TTAGATTTCGGGAGTGGATTAGTGCTA,0.524
GACGGTCTCAGTATCGGGACGTGCTAG,1.73
GACGGACTGGGGTTTCGGGAAGTGCTA,0.255
TTATGTCTCGGTATCGGTTAGTGCTAG,2.57
TTAGAACTGAGTTTCTATTAGTGCTAG,0.772
GACGGACTCGACTATCGGGACGTGCTA,-0.392
TCATTTTTTTCTTTAAAACTGTGCTAG,1.42
GACGAACTAGGGTTTCGAGACGTGCTA,0.46
TTAGATCACAGTTTCGATTAGTGCTAG,3.3
TTAGAACTGGGGTAGCGATTAGTGCTA,-0.945
GACGAGCTCAGACTGGAGACGTGCTAG,-0.506
TTAGGACTGGACTTTCGGTTAGTGCTA,0.931
GACGGTTACCTTCTCCTGACGTGCTAG,5.56
GAATGTGTCTTAAATAGGAGAGTGCTA,0.556
TCAGCTCTGCGGTTCAGACTGTGCTAG,-0.00686
GACGGTTTAGGTCTCGGGACGTGCTAG,0.906

# Some of these lines once more (series 4):
Variant,normalised enrichment score
VSAVQLLDFSDTM [K6L],0.494
VSAVQKLDFSDTR [M13R],0.814
VDAVQKLDFSDTM [S2D],-0.222
VSACQKLDFSDTM [V4C],0.0825
VSAVQKLDFMDTM [S10M],0.624
VSAVQKLDFSDTF [M13F],0.741
KSAVQKLDFSDTM [V1K],0.421
VSAVQKLIFSDTM [D8I],0.86
VSAVQCLDFSDTM [K6C],0.683
